Published values from different studies.
Several values in a cell are separate wells, animals, samples, runs or records. ± marks the error that the study gave.
Protein AF-9 with DOT1L: Protein AF-9, with DOT1L (Homo sapiens, UniProt P42568)
UniProt P42568, sequence (whole entry, looked up): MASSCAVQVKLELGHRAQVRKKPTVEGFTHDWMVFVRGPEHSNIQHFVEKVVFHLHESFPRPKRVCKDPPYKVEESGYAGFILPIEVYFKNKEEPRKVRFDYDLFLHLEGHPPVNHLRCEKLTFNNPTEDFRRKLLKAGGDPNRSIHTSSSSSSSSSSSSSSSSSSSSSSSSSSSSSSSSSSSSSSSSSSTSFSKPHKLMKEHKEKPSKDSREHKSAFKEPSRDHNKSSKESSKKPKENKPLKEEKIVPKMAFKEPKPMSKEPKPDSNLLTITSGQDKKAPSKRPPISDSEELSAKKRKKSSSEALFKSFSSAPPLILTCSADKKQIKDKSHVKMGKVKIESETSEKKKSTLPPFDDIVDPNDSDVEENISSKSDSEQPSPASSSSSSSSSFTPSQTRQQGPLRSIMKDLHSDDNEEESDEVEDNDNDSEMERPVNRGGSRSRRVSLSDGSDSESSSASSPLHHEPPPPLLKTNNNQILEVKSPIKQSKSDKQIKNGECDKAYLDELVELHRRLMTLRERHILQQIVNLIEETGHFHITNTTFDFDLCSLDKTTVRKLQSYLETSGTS
BRD9: Bromodomain-containing protein 9 (BRD9, Homo sapiens, UniProt Q9H8M2)
UniProt Q9H8M2, sequence (whole entry, looked up): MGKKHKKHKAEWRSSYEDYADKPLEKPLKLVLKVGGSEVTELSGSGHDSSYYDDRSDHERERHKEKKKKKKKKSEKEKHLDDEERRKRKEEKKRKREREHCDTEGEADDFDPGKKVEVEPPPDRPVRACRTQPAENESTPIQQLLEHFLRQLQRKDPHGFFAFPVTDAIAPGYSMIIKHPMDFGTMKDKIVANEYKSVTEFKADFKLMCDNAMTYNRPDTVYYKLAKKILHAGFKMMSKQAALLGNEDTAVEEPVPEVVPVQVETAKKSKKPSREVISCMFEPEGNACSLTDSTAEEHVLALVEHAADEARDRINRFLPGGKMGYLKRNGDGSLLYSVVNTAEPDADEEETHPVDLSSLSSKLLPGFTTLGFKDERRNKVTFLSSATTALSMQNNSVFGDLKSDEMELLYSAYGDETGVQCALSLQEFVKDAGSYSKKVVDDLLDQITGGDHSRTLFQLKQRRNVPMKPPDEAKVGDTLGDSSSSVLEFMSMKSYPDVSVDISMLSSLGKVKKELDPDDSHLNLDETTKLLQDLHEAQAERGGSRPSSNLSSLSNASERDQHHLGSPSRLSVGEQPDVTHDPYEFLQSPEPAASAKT
UniProt P03952, sequence (whole entry, looked up): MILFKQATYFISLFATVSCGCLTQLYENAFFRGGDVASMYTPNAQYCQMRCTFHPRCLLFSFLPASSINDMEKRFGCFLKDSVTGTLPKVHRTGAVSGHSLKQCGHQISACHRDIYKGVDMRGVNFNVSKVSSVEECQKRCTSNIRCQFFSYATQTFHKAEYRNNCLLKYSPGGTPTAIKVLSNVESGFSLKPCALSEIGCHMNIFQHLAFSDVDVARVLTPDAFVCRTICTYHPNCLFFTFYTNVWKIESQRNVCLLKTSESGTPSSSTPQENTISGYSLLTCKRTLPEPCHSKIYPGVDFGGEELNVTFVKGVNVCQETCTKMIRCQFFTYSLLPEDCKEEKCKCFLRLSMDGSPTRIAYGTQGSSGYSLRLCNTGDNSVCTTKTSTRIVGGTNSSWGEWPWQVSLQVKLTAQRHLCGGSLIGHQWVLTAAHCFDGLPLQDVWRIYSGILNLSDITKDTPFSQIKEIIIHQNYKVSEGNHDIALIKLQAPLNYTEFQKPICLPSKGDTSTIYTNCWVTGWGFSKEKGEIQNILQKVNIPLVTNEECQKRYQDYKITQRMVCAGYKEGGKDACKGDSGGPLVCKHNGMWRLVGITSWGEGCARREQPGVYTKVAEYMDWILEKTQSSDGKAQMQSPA
UniProt P21462, sequence (whole entry, looked up): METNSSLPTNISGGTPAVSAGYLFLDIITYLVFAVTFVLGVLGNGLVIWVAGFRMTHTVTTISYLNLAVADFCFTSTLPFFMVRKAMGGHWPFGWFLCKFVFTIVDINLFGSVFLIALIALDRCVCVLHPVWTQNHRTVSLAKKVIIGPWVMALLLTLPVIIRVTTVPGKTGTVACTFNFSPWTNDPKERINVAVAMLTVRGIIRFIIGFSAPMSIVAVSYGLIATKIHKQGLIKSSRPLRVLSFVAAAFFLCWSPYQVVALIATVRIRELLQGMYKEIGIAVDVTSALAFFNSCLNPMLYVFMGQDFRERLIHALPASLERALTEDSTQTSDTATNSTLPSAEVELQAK
UniProt P48730, sequence (whole entry, looked up): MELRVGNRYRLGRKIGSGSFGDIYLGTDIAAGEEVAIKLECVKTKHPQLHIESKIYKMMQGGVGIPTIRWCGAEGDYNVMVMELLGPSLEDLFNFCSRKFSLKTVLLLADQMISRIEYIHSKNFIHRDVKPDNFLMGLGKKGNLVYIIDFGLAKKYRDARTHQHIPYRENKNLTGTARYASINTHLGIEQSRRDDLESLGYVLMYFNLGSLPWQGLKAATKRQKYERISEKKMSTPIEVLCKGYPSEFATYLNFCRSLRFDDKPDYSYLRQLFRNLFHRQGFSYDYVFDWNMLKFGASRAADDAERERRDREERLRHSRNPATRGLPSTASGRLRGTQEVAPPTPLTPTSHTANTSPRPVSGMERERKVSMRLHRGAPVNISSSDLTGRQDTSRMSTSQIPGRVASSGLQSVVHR
UniProt P15735, sequence (whole entry, looked up): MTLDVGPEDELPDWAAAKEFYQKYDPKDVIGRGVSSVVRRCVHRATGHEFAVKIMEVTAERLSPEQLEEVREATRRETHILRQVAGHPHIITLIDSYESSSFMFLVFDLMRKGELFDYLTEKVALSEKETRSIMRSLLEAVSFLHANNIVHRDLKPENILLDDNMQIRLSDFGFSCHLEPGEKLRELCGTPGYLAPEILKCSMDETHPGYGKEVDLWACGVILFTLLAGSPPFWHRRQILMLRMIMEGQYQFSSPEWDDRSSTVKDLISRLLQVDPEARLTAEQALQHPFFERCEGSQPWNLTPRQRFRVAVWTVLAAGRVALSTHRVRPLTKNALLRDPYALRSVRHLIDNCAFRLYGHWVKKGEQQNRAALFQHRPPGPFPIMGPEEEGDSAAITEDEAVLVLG
UniProt P10275, sequence (whole entry, looked up): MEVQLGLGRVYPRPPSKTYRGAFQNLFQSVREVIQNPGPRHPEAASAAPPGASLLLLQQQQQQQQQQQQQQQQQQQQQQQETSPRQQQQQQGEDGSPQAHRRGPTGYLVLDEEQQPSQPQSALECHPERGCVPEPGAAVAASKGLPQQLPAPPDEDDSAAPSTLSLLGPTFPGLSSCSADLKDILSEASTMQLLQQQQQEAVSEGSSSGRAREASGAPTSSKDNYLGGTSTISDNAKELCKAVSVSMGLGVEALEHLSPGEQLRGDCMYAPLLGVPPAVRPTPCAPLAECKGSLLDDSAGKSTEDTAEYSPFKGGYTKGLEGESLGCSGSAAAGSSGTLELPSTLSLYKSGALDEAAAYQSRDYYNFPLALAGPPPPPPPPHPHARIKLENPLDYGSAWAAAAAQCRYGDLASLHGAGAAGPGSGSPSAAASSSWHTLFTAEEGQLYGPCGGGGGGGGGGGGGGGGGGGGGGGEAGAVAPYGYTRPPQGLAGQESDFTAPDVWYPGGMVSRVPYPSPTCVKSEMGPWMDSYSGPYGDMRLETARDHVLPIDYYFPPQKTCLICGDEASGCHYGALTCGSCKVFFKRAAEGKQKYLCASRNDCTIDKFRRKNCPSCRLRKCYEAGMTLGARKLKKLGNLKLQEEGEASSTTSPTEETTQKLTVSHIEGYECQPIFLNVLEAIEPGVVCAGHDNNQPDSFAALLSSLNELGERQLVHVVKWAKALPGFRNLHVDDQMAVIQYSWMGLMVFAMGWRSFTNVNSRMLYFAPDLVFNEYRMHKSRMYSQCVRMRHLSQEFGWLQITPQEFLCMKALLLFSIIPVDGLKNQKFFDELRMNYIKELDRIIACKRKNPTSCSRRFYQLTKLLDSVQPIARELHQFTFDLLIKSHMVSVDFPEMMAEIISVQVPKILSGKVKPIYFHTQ
UniProt Q8TDV5, sequence (whole entry, looked up): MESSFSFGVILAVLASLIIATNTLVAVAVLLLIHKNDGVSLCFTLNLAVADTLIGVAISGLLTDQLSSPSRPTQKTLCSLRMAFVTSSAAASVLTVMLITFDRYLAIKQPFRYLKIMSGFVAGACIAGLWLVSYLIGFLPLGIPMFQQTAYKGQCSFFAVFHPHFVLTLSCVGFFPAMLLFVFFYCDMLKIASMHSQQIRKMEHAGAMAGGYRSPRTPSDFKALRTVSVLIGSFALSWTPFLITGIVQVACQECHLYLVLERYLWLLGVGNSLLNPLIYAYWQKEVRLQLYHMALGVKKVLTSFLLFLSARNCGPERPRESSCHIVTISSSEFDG
UniProt P48048, sequence (whole entry, looked up): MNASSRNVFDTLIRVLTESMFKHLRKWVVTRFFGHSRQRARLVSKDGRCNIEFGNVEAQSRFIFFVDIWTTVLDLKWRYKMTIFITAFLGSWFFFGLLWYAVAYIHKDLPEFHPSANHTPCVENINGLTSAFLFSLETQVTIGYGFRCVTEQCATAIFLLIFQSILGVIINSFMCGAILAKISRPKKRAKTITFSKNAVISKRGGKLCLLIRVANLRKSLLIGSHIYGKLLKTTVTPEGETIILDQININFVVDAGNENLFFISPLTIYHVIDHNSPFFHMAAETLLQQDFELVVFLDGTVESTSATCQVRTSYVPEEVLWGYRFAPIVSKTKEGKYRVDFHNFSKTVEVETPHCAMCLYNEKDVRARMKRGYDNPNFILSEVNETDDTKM
UniProt Q9NZQ7, sequence (whole entry, looked up): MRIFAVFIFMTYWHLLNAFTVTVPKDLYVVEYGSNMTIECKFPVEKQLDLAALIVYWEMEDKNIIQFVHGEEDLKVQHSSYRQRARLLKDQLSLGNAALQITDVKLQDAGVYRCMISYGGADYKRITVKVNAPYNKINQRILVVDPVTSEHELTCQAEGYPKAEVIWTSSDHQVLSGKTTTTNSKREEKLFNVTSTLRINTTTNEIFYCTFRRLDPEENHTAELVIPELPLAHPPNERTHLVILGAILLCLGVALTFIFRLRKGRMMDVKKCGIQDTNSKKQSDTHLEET

| SMILES | target | assay | system | setting | inhibition |
| --- | --- | --- | --- | --- | --- |
| CN1CCN(c2cc(-c3ccncc3)c(-c3ccc4ccccc4c3)nn2)CC1 | FPR1 (Homo sapiens, UniProt P21462) | antagonist, FLIPR | – | 10 µM | -0.5% |
| c1cc(N2CCNCC2)ccc1-c1ccc2ncc(OCC3CCNCC3)nc2c1 | Protein AF-9 with DOT1L | DOT1L binding, AlphaLISA | – | 10 µM | 16% |
| COc1ccccc1-c1cc(C(C)=O)n2ccccc12 | BRD9 | AlphaScreen | – | 1 µM | 61.2% |
| OCCCN1CC[C@@H]2C[C@H]1c1cc(-c3ccc(C(F)(F)F)cc3)ccc12 | ADRA1B (Homo sapiens, UniProt P35368) | radioligand binding, PDSP competition binding | – | 10 µM | < 50% |
| COc1c(C#N)ccnc1N1C2CCC1CN(C(=O)c1cccnc1-n1cccn1)C2 | SK calcium-activated potassium channel | binding | – | 10 µM | -12.2% |
| COc1cc(-c2ccc3ncc(OCC4CCNCC4)nc3c2)cc(OC)c1OC | Protein AF-9 with DOT1L | DOT1L binding, AlphaLISA | – | 10 µM | 10 to 30% |
| Cc1ccc(C(=O)Nc2ccc3ccccc3c2)o1 | ATP-sensitive inward rectifier potassium channel 1 (Homo sapiens, UniProt P48048) | ion current, whole-cell patch-clamp | – | 10 µM, hKir1.1 | 3.38% |
| CC[C@@H]1[C@H](F)C(=O)N[C@@H]1COc1nccc2cc(C(N)=O)c(OC)cc12 | PHKG2 (Homo sapiens, UniProt P15735) | ATP-site probe binding, ActivX profiling | THP-1 cell lysate | 0.04 mM, Lys1 site | 3.7% |
| COc1cc(C(=O)NS(=O)(=O)c2ccccc2C)ccc1Cc1cn(C)c2ccc(NC(=O)OC3CCCC3)cc12 | Volume-regulated anion channel subunit LRRC8C, part LRRC8A IL1 chimera (LRRC8C, Homo sapiens, UniProt Q8TDW0, L105R) | ion current, inhibitor, whole-cell patch clamp | HCT LRRC8-/- cells | 3 µM, +100 mV | 11% and 6.19% and 30.2% and 12.7% and 21% and 11.2% |
| CC[C@]12CCCN3CCc4c([nH]c5ccccc45)[C@]31N(Cc1cn(Cc3ccccc3)nn1)C(=O)C2 | GPR119 (Homo sapiens, UniProt Q8TDV5) | beta-arrestin recruitment, antagonist, PathHunter chemiluminescence | – | 20 µM, together with: agonist at EC80 | 30% |
| NC/C(=C\F)COc1cccc(Cn2c(=S)[nH]c(=O)c3[nH]cnc32)c1 | Androgen receptor (AR, Homo sapiens, UniProt P10275) | radioligand binding, measured: testosterone binding | – | 10 µM | < 50% |
| O=c1oc(-c2ccco2)nc2ccccc12 | Plasma kallikrein (KLKB1, Homo sapiens, UniProt P03952) | chromogenic substrate hydrolysis | – | up to 50 µM | no inhibition |
| COc1ccc(Cl)cc1NC(=O)CN1C(=O)N[C@](C)(Cc2ccc(OC)c(OC)c2)C1=O | uncharacterized protein (Erigeron canadensis, UniProt A0A8M0FGR5) | enzyme activity | – | 100 mg/L | > 30% |
| Cc1c(COc2ccc(CN3CCCCC3C(=O)NCCNC(=O)CN(C)CCCC34CCC(c5ccccc53)c3ccccc34)cc2Br)cccc1-c1ccccc1 (stereo not drawn) | CD274 (Homo sapiens, UniProt Q9NZQ7) | binding, inhibitor, HTRF | – | 1 µM | 8.3 ± 1.9% |
| COc1cc(-c2cc(C(C)=O)n3ccccc23)cc(OC)c1C(=O)N(C)C | BRD9 | AlphaScreen | – | 1 µM | 95.6% |
| Cc1ccc(Nc2ccc3ncc(OCC4CCNCC4)nc3c2)cc1 | Protein AF-9 with DOT1L | DOT1L binding, AlphaLISA | – | 10 µM | 43% |
| Cc1cccc(-c2nc(-c3ccc(NS(C)(=O)=O)cc3)[nH]c2-c2ccncc2)c1 | CSNK1D (Homo sapiens, UniProt P48730) | kinase activity | – | 1 µM | 13% |
| COc1cccc(-c2cc(C(C)=O)n3ccccc23)c1 | BRD9 | AlphaScreen | – | 1 µM | 86.1% |

A few entries again:
| SMILES | target | assay | system | setting | inhibition |
| --- | --- | --- | --- | --- | --- |
| CC[C@]12CCCN3CCc4c([nH]c5ccccc45)[C@]31N(Cc1cn(Cc3ccccc3)nn1)C(=O)C2 | GPR119 (Homo sapiens, UniProt Q8TDV5) | beta-arrestin recruitment, antagonist, PathHunter chemiluminescence | – | 20 µM, together with: agonist at EC80 | 30% |
| NC/C(=C\F)COc1cccc(Cn2c(=S)[nH]c(=O)c3[nH]cnc32)c1 | Androgen receptor (AR, Homo sapiens, UniProt P10275) | radioligand binding, measured: testosterone binding | – | 10 µM | < 50% |
| O=c1oc(-c2ccco2)nc2ccccc12 | Plasma kallikrein (KLKB1, Homo sapiens, UniProt P03952) | chromogenic substrate hydrolysis | – | up to 50 µM | no inhibition |
